# Experimental data of several laboratories.
# Lines come from different studies, so protocols differ.
# Organism: Pseudomonas aeruginosa
Structure (SMILES),test,test system,setting,scale,measurement,value
CC(C)C[C@@H]1NC(=O)[C@H](CC(C)C)NC(=O)[C@H](CC(C)C)NC(=O)[C@@H]2CSCC(=O)N[C@@H](CCCCN)C(=O)N[C@@H](CCCCN)C(=O)N[C@@H](CCCCN)C(=O)N[C@@H](CCCCNC(=O)[C@H](CCCCN)NC(=O)[C@H](CCCCN)NC(=O)[C@H](CCCCN)NC(=O)CSC[C@@H](C(=O)N[C@@H](CCCCN)C(N)=O)NC1=O)C(=O)N[C@@H](CCCCN)C(=O)N[C@@H](CC(C)C)C(=O)N[C@@H](CC(C)C)C(=O)N2,,PAO1,24 to 25 h,,minimal biofilm inhibitory concentration,32 µg/mL
CC[C@H](C)[C@H](NC(=O)[C@H](CCCCN)NC(=O)[C@H](CCCCN)NC(=O)[C@H](CC(C)C)NC(=O)[C@H](CCCCN)NC(=O)[C@H](CCC(=O)O)NC(=O)[C@H](CCCCN)NC(=O)[C@@H](NC(=O)[C@H](CCCCN)NC(=O)[C@H](CC(N)=O)NC(=O)[C@H](CCCNC(=N)N)NC(=O)[C@H](Cc1ccccc1)NC(=O)[C@H](CCCCN)NC(=O)[C@H](CCCNC(=N)N)NC(=O)[C@H](CC(C)C)NC(=O)[C@H](CCCNC(=N)N)NC(=O)[C@H](CCCCN)NC(=O)[C@H](CCCNC(=N)N)NC(=O)[C@H](CC(C)C)NC(=O)CN)[C@@H](C)CC)C(=O)NCC(=O)N[C@@H](CCC(N)=O)C(=O)N[C@@H](CCCCN)C(=O)N[C@H](C(=O)N[C@@H](CCC(N)=O)C(=O)NCC(=O)N[C@@H](Cc1ccccc1)C(=O)N[C@H](C(=O)N1CCC[C@H]1C(=O)N[C@@H](CCCCN)C(=O)N[C@@H](CC(C)C)C(=O)N[C@@H](C)C(=O)N1CCC[C@H]1C(=O)N[C@@H](CCCNC(=N)N)C(=O)N[C@H](C(=O)N[C@@H](CC(=O)O)C(=O)N[C@@H](Cc1ccc(O)cc1)C(=O)O)[C@@H](C)O)C(C)C)[C@@H](C)CC,inhibition zone method,"374, LB 0.8% agar with 154 mM NaCl","overnight, 37 °C",,lethal concentration,1.79 µM
CC[C@H](C)[C@H](NC(=O)[C@H](Cc1c[nH]cn1)NC(=O)[C@H](CCCCNC(=O)[C@@H](NC(=O)[C@H](CCCCN)NC(=O)[C@H](Cc1ccccc1)NC(=O)[C@H](CCCCNC(=O)[C@H](CC(C)C)NC(=O)[C@@H]1CCCN1C(=O)[C@H](CCCCN)NC(=O)C[C@@H]1O[C@@H](C)[C@@H](O)[C@@H](O)[C@@H]1O)NC(=O)[C@H](CC(C)C)NC(=O)[C@@H]1CCCN1C(=O)[C@H](CCCCN)NC(=O)C[C@@H]1O[C@@H](C)[C@@H](O)[C@@H](O)[C@@H]1O)[C@@H](C)CC)NC(=O)[C@@H](NC(=O)[C@H](CCCCN)NC(=O)[C@H](Cc1ccccc1)NC(=O)[C@H](CCCCNC(=O)[C@H](CC(C)C)NC(=O)[C@@H]1CCCN1C(=O)[C@H](CCCCN)NC(=O)C[C@@H]1O[C@@H](C)[C@@H](O)[C@@H](O)[C@@H]1O)NC(=O)[C@H](CC(C)C)NC(=O)[C@@H]1CCCN1C(=O)[C@H](CCCCN)NC(=O)C[C@@H]1O[C@@H](C)[C@@H](O)[C@@H](O)[C@@H]1O)[C@@H](C)CC)C(N)=O,,PAO1,biofilm-forming conditions,,MBC,> 30 µM
CCCCCCCC(=O)NCC(=O)N[C@@H](CC(C)C)C(=O)N[C@@H](CC(C)C)C(=O)N[C@@H](CCCCN)C(=O)N[C@@H](CCCNC(=N)N)C(=O)N[C@H](C(=O)N[C@@H](CCCCN)C(=O)N[C@H](C(=O)N[C@@H](CC(C)C)C(=O)N[C@@H](CC(C)C)C(N)=O)[C@@H](C)O)[C@@H](C)CC,checkerboard,ATCC 27853,with: polymyxin B,,FIC index,0.375
CC[C@H](C)[C@H](NC(=O)[C@H](CCCCN)NC(=O)[C@H](CCCCN)NC(=O)[C@H](CC(C)C)NC(=O)[C@H](CCCCN)NC(=O)[C@H](CCC(=O)O)NC(=O)[C@H](CCCCN)NC(=O)[C@@H](NC(=O)[C@H](CCCCN)NC(=O)[C@H](CC(N)=O)NC(=O)[C@H](CCCNC(=N)N)NC(=O)[C@H](Cc1ccccc1)NC(=O)[C@H](CCCCN)NC(=O)[C@H](CCCNC(=N)N)NC(=O)[C@H](CC(C)C)NC(=O)[C@H](CCCNC(=N)N)NC(=O)[C@H](CCCCN)NC(=O)[C@H](CCCNC(=N)N)NC(=O)[C@H](CC(C)C)NC(=O)[C@@H](N)CCCNC(=N)N)[C@@H](C)CC)C(=O)NCC(=O)N[C@@H](CCC(N)=O)C(=O)N[C@@H](CCCCN)C(=O)N[C@H](C(=O)N[C@@H](CCC(N)=O)C(=O)NCC(=O)N[C@@H](Cc1ccccc1)C(=O)N[C@H](C(=O)N1CCC[C@H]1C(=O)N[C@@H](CCCCN)C(=O)N[C@@H](CC(C)C)C(=O)N[C@@H](CCC(N)=O)C(=O)N1CCC[C@H]1C(=O)N[C@@H](CO)C(=O)N[C@@H](CCCCN)C(=O)N[C@@H](CCC(N)=O)C(=O)N[C@@H](CO)C(=O)O)C(C)C)[C@@H](C)CC,inhibition zone,FRD1,"LB agar, overnight",,lethal concentration,4.46 µM
CC(CCC(=O)[O-])C1CCC2C3CCC4CC(O)CCC4(C)C3CC(O)C12C.C[N+](C)(C)CC(O)CC(=O)O (stereo not drawn),,TISTR357,"1 mg per disc, 18 to 24 h, 37 °C",,antibacterial activity,inactive
ONCC1CCCCC1,item: purine dNTPs,,"5000 µM, 3 h, exponential phase",baseline: negative control,reduction of dNTP level,7.45%
CCCCCC(=O)NCC(=O)N[C@@H](CC(C)C)C(=O)N[C@@H](CC(C)C)C(=O)N[C@@H](CCCCN)C(=O)N[C@@H](CCCNC(=N)N)C(=O)N[C@H](C(=O)N[C@@H](CCCCN)C(=O)N[C@H](C(=O)N[C@@H](CC(C)C)C(=O)N[C@@H](CC(C)C)C(=O)NCCCC[C@H](NC(=O)[C@H](CC(C)C)NC(=O)[C@H](CC(C)C)NC(=O)[C@@H](NC(=O)[C@H](CCCCN)NC(=O)[C@@H](NC(=O)[C@H](CCCNC(=N)N)NC(=O)[C@H](CCCCN)NC(=O)[C@H](CC(C)C)NC(=O)[C@H](CC(C)C)NC(=O)CNC(=O)CCCCC)[C@@H](C)CC)[C@@H](C)O)C(N)=O)[C@@H](C)O)[C@@H](C)CC,checkerboard,ATCC 27853,with: polymyxin B,,FIC index,0.25
CC[C@H](C)[C@H](NC(=O)[C@H](CCCCN)NC(=O)[C@H](CCCCN)NC(=O)[C@H](CC(C)C)NC(=O)[C@H](CCCCN)NC(=O)[C@H](CCC(=O)O)NC(=O)[C@H](CCCCN)NC(=O)[C@@H](NC(=O)[C@H](CCCCN)NC(=O)[C@H](CC(N)=O)NC(=O)[C@H](CCCNC(=N)N)NC(=O)[C@H](Cc1ccccc1)NC(=O)[C@H](CCCCN)NC(=O)[C@H](CCCNC(=N)N)NC(=O)[C@H](CC(C)C)NC(=O)[C@H](CCCNC(=N)N)NC(=O)[C@H](CCCCN)NC(=O)[C@H](CCCNC(=N)N)NC(=O)[C@H](CC(C)C)NC(=O)[C@@H](N)CC(C)C)[C@@H](C)CC)C(=O)NCC(=O)N[C@@H](CCC(N)=O)C(=O)N[C@@H](CCCCN)C(=O)N[C@H](C(=O)N[C@@H](CCC(N)=O)C(=O)NCC(=O)N[C@@H](Cc1ccccc1)C(=O)N[C@H](C(=O)N1CCC[C@H]1C(=O)N[C@@H](CCCCN)C(=O)N[C@@H](CC(C)C)C(=O)N[C@H](C(=O)N1CCC[C@H]1C(=O)N[C@@H](CCCNC(=N)N)C(=O)N[C@H](C(=O)N[C@@H](CCC(=O)O)C(=O)N[C@@H](CO)C(=O)O)[C@@H](C)O)C(C)C)C(C)C)[C@@H](C)CC,inhibition zone method,"11092304, LB 0.8% agar with 154 mM NaCl","overnight, 37 °C",,lethal concentration,2.67 µM
CC(C)C[C@@H]1NC(=O)[C@H](CCCCN)NC(=O)CSC[C@@H](C(=O)N[C@@H](CCCCN)C(N)=O)NC(=O)[C@H](CCCCN)NC(=O)[C@H](CC(C)C)NC(=O)[C@H](CC(C)C)NC(=O)[C@@H]2CSCC(=O)N[C@@H](CCCCN)C(=O)N[C@@H](CC(C)C)C(=O)N[C@@H](CCCCN)C(=O)N[C@@H](CCCCNC(=O)[C@H](CCCCN)NC1=O)C(=O)N[C@@H](CCCCN)C(=O)N[C@@H](CC(C)C)C(=O)N[C@@H](CC(C)C)C(=O)N2,,PAO1,24 to 25 h,,minimal biofilm inhibitory concentration,8 µg/mL
CC[C@H](C)[C@H](NC(=O)[C@H](CCCCN)NC(=O)[C@H](CCCCN)NC(=O)[C@H](CC(C)C)NC(=O)[C@H](CCCCN)NC(=O)[C@H](CCC(=O)O)NC(=O)[C@H](CCCCN)NC(=O)[C@@H](NC(=O)[C@H](CCCCN)NC(=O)[C@H](CC(N)=O)NC(=O)[C@H](CCCNC(=N)N)NC(=O)[C@H](Cc1ccccc1)NC(=O)[C@H](CCCCN)NC(=O)[C@H](CCCNC(=N)N)NC(=O)[C@H](CC(C)C)NC(=O)[C@H](CCCNC(=N)N)NC(=O)[C@H](CCCCN)NC(=O)[C@H](CCCNC(=N)N)NC(=O)[C@@H](N)CC(C)C)[C@@H](C)CC)C(=O)NCC(=O)N[C@@H](CCC(N)=O)C(=O)N[C@@H](CCCCN)C(=O)N[C@H](C(=O)N[C@@H](CCC(N)=O)C(=O)NCC(=O)N[C@@H](Cc1ccccc1)C(=O)N[C@H](C(=O)N1CCC[C@H]1C(=O)N[C@@H](CCCCN)C(=O)N[C@@H](CC(C)C)C(=O)O)C(C)C)[C@@H](C)CC,inhibition zone method,"11082616, LB 0.8% agar with 154 mM NaCl","overnight, 37 °C",,lethal concentration,3.54 µM
C[C@@](O)(C(F)F)[C@H](NC(=O)c1ccc(C#CC#CC2CC2)cc1)C(=O)NO,agar dilution,"clinical isolates, susceptible and MDR/XDR",,,MIC50,0.25 µg/mL

# For quick reference, copied from above:
Structure (SMILES),test,test system,setting,scale,measurement,value
CCCCCCCC(=O)NCC(=O)N[C@@H](CC(C)C)C(=O)N[C@@H](CC(C)C)C(=O)N[C@@H](CCCCN)C(=O)N[C@@H](CCCNC(=N)N)C(=O)N[C@H](C(=O)N[C@@H](CCCCN)C(=O)N[C@H](C(=O)N[C@@H](CC(C)C)C(=O)N[C@@H](CC(C)C)C(N)=O)[C@@H](C)O)[C@@H](C)CC,checkerboard,ATCC 27853,with: polymyxin B,,FIC index,0.375
